Experimental data from different studies.
Parts stem from different laboratories: compare values within a part only. Changes are numbered by the printed parent chain.
Sequence of UniProt P29376 (whole entry, looked up): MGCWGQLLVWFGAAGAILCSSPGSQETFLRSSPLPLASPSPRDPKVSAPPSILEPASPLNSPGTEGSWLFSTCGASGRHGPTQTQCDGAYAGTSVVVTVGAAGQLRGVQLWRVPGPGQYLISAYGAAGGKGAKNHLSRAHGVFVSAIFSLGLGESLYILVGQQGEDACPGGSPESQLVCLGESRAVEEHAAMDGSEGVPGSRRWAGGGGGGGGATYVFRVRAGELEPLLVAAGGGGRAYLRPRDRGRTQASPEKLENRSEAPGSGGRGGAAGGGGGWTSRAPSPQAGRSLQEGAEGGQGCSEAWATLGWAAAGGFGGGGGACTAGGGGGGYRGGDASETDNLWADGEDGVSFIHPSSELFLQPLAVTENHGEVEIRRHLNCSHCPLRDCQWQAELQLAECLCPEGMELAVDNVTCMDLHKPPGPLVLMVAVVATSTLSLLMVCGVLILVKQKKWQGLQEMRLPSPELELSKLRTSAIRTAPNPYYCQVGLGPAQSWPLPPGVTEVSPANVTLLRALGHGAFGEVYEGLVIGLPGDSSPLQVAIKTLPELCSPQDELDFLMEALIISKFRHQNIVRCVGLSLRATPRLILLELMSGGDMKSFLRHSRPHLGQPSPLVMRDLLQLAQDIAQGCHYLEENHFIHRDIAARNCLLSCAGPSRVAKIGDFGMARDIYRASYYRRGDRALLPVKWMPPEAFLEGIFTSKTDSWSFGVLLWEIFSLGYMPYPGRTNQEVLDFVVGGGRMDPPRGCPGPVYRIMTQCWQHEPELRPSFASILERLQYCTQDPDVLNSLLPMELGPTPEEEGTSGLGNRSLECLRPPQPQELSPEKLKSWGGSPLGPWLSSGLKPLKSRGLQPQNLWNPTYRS

Sample 1
Target: ABI1, truncated, D143A, DHFR fusion (Arabidopsis thaliana, UniProt P49597)
Technique: DHFR PCA, dose-response
Medium: yeast
Setting: Hill fit, mean, not affinity
Together with: (+)-ABA, dose series
Direction: lower = more sensitive
Starting sequence: PYL1, truncated, DHFR fusion (Arabidopsis thaliana, UniProt Q8VZS8); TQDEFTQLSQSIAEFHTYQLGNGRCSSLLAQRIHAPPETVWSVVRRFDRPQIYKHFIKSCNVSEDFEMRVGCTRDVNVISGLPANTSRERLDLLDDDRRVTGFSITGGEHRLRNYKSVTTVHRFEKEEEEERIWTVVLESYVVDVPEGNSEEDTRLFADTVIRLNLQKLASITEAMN
The ABA EC50 of `S9P` is reported as 41.9 µM.
`E14D` gave an ABA EC50 of 3.86 µM.
`D75A` gave an ABA EC50 of 3.87 µM.
For `E125Q`, the ABA EC50 was 1.27 µM.
With `F66L` the ABA EC50 was 8.59 µM.
`D95L` gave an ABA EC50 of 29.6 µM.
With `V62M` the ABA EC50 was 5.08 µM.
`S80Q` has an ABA EC50 of 159 µM.

Sample 2
Target: Protein kinase C delta type (PRKCD, Homo sapiens, UniProt Q05655)
Sequence of UniProt Q05655 (whole entry, looked up): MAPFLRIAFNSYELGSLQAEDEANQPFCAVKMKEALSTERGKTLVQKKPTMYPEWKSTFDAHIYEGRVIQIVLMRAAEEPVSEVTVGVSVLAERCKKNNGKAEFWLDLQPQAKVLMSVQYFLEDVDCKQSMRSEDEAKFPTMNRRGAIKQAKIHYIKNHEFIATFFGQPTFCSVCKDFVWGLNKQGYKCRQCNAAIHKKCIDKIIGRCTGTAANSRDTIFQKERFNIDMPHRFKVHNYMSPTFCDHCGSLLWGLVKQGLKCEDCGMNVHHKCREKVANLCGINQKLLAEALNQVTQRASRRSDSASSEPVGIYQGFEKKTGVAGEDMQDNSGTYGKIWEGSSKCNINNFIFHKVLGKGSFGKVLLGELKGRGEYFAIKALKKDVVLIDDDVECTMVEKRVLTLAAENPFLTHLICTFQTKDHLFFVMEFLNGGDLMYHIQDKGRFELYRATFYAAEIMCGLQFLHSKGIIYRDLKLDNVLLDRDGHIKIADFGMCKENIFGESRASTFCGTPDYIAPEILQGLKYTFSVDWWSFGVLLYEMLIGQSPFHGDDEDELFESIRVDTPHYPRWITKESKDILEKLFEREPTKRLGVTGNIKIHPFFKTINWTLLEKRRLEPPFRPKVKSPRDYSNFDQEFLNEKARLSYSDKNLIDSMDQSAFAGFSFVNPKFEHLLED
Effect on: enzyme activity
Action: inhibitor
Tested at: 0.5 µM
Reference: control
For `CN([C@@H](Cc1ccc(OS(=O)(=O)c2cccc3cnccc23)cc1)C(=O)N1CCN(c2ccccc2)CC1)S(=O)(=O)c1cccc2cnccc12`, the remaining activity was 93%.
`O=c1cc(-c2cccc3c2Sc2ccccc2S3)oc(N2CCOCC2)c1` gave a remaining activity of 91.9%.
With `COc1cc2ncnc(Nc3ccc(O)c(Br)c3)c2cc1OC` the remaining activity was 97.3%.

Sample 3
Target: Fragile X messenger ribonucleoprotein 1, C-terminal low-complexity region (Fmr1, Mus musculus, UniProt P35922)
Technique: RNA Bind-n-Seq
Molecule type: RNA
Medium: in vitro
Tested at: 200 nM
Setting: whole 134-nt RNA, ends assumed
Together with: 150 mM LiCl
Reference: input library
Direction: higher = stronger binding
Each molecule: 7-deaza-guanosine replaces G
For `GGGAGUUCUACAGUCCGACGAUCUCAAGUCCUGUGCUACACAUCGUAUGUACCGAAUCGGGGCCCGGCCCGGCCCGGAAAGUAUUAUGUUACGCCGUUCGGAUCUGCACUUCCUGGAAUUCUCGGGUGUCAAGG`, the log2 enrichment was -0.761.
`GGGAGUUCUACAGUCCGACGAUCUCCUGUGCUACACAUCGUAUGUACCGAAUCGGGGAAAAAGGGGAAAAAGGGGAAAAAGGGAAAGUAUUAUGUUACGCCGUUCGGAUCUGCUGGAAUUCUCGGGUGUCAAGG` has a log2 enrichment of -0.11.
For `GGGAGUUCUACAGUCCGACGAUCUGUGUGACUUCCUUGGAGAGAAGAUUGCAUCUGUUUUGGGUAUCAGCACCCCAAAGUACCAAUAUGCCAUUGAUGAAUAUUAUCGGAUGAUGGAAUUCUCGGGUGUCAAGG`, the log2 enrichment was -0.773.
`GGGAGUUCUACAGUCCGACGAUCUGGGAGGUGGAUUUUGUUUAUUUUUUUAGCUCAUUUCCUGGGGUGGGAAUUUUUUUUUAAUAUGUGUCAUGAAUAAAGUUGUUUUUGAAAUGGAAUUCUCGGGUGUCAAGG` gave a log2 enrichment of -0.0781.
The log2 enrichment of `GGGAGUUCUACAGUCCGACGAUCAGUCCUGUGCUACACAUCGUAUGUACCGAAUCGGUUUUUUUGGUUUUUUUGGUUUGGAAAGUAUUAUGUUACGCCGUUCGGAUCUGCACUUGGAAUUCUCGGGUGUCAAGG` is reported as -2.6.
The log2 enrichment of `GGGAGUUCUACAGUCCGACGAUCCAAGUCCUGUGCUACACAUCGUAUGUACCGAAUCGGGGUUUGGUUUGGGUUUGGGAAAGUAUUAUGUUACGCCGUUCGGAUCUGCACUUCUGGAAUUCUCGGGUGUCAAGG` is reported as -1.58.
`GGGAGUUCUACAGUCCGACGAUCCAAGUCCUGUGCUACACAUCGUAUGUACCGAAUCGGGUGGGUUUUUGGGAAAGGGAAAGUAUUAUGUUACGCCGUUCGGAUCUGCACUUCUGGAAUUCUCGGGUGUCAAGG` has a log2 enrichment of -1.04.
`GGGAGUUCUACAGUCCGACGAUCUGCAGACGGGGAACCUGCUGAACUGGGGCCGCCUGCGGAAGAAGUGCCCGUCCACGCACAGCGAGGAGGUGAGCGUGGCGACACUCGCCGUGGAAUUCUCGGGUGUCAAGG` gave a log2 enrichment of -2.46.

Single results of other studies
`CCOCCn1cc(C(=O)Nc2ccc(-n3nc(-c4cccnc4)cc3C(F)(F)F)cn2)ccc1=O` has a remaining binding of 100% (Leukocyte tyrosine kinase receptor (LTK, Homo sapiens, UniProt P29376); cell-free assay, competition with immobilised ligand; 1 µM).

A few entries again (sample 1):
With `F66L` the ABA EC50 was 8.59 µM.
`D95L` gave an ABA EC50 of 29.6 µM.
With `V62M` the ABA EC50 was 5.08 µM.
